Experimental data pooled from the literature.
Each numbered part is a random draw from the data of one study; scales do not carry over between parts. Changes are numbered by the printed parent chain.

Block 1 — technique: DHFR PCA, deep sequencing; medium: yeast; with: (+)-ABA 4.8 µM; relative to: wild-type fitted maximum; direction: higher = stronger binding
Target: ABI1, truncated, D143A, DHFR fusion (Arabidopsis thaliana)
Setting: methotrexate growth selection, single substitutions
Starting sequence: PYL1, truncated, DHFR fusion (Arabidopsis thaliana); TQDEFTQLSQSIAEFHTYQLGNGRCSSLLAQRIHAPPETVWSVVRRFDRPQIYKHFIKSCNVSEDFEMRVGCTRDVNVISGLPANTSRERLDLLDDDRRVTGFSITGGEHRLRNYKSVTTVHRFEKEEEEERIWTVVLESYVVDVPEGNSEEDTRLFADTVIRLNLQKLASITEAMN; partner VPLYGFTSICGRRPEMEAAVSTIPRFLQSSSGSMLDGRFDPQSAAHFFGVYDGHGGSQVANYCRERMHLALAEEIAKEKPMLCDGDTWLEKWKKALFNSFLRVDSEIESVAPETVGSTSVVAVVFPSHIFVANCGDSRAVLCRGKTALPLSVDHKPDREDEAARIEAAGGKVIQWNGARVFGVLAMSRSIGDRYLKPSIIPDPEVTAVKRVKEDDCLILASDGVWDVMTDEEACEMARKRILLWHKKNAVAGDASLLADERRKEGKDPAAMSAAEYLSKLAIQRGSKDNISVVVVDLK
`T1L` — result for “relative binding score”: 73.6%.
`G148Y`: “relative binding score” -6.14%.
Under “relative binding score”, `D159C` is recorded as -3.57%.
`Q167N`: “relative binding score” 71.3%.
`Q51P`: “relative binding score” 23.4%.
Under “relative binding score”, `T73R` is recorded as 42.7%.
For `L94V`, “relative binding score” read 4.81%.
`H55L` — result for “relative binding score”: 77.6%.
For `P37Q`, “relative binding score” read 28.4%.
`I33Q` — result for “relative binding score”: 6.02%.
`P50K`: “relative binding score” 4.11%.
`C72V`: “relative binding score” 72.4%.
`G23E`: “relative binding score” 35.6%.
For `E4G`, “relative binding score” read 54.1%.

Block 2 — technique: RNA Bind-n-Seq; form: RNA; medium: in vitro; concentration: 200 nM; setting: whole 134-nt RNA, ends assumed; with: 150 mM KCl; relative to: input library; direction: higher = stronger binding
Target: Ras GTPase-activating protein-binding protein 1, full length (G3BP1, Homo sapiens, UniProt Q13283)
Chain of UniProt Q13283 (whole entry, looked up): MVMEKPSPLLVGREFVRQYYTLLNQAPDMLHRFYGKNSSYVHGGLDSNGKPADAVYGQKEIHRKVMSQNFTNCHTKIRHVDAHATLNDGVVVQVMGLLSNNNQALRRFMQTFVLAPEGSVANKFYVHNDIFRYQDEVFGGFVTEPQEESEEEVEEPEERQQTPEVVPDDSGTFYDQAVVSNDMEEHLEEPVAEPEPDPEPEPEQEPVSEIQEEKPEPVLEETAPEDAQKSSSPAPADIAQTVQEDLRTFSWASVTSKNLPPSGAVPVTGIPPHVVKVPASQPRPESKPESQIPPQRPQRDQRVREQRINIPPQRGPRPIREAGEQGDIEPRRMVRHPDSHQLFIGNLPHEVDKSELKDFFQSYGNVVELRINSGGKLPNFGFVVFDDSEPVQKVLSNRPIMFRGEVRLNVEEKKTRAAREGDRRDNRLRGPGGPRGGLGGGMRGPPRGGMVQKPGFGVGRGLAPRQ
`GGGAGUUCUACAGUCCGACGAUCCCUGUGCUACACAUCGUAUGUACCGAAUCGGGGAGGGGUUUUUUUGGGGUUUUUUUGGGGAAAGUAUUAUGUUACGCCGUUCGGAUCUGCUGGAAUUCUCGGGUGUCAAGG` has a log2 enrichment of 0.1.
The log2 enrichment of `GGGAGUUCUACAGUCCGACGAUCUGUCCAGCUCUGAAGGGCAAAGUGCAGAAGAUCCUAAUCUGGAAGUGGGGUCAGCCACCAUCUCCCACACCAGUGCCUCGGCCUCCAGAUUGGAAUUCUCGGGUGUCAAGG` is reported as 0.0259.
With `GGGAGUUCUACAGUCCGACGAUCCUGUGCUACACAUCGUAUGUACCGAAUCGGGGUUUUUGGGGAAAAAGGGGAAAAAAAGGGGAAAGUAUUAUGUUACGCCGUUCGGAUCUGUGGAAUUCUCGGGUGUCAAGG` the log2 enrichment was -0.29.
The log2 enrichment of `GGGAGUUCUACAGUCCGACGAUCGCAGGAAGUAAAAACAAAUGGAAAUGCUUCGGAUAGUGGCAGGGGUGGGGGUUGCUAAGGAAAGGGUGGGAUGGGAGUGGGUAAUGAGUUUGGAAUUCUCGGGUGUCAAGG` is reported as 1.2.
For `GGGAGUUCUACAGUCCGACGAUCUAACUUUAGAGGAGGAUCUGAUGGAUAUGGCAGUGGAAGUGGAUUUGGGGAUGGCUAUAAUGGGUAUGGAGGAGGACCUGGAGGUGGCAAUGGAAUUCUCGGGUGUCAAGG`, the log2 enrichment was 0.192.
`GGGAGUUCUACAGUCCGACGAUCUAACUUUAGAGGAGGAUCUGAUGGAUAUGGCAGUGGACGUGGAUUUGGGAAUGGCUAUAAUGGGUAUGGAGGAGGACCUGGAGGUGGCAAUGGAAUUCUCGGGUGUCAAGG` has a log2 enrichment of 0.288.
The log2 enrichment of `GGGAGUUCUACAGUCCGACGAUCCAAGUCCUGUGCUACACAUCGUAUGUACCGAAUCGGGGUUGGGUUGGGGUUGGGGAAAGUAUUAUGUUACGCCGUUCGGAUCUGCACUUCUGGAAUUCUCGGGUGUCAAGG` is reported as 0.905.
With `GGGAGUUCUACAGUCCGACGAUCCCUGUGCUACACAUCGUAUGUACCGAAUCGGGAAAAAAAGGGAAAAAAAGGGAAAAAAAGGAAAGUAUUAUGUUACGCCGUUCGGAUCUGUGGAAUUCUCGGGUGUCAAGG` the log2 enrichment was -0.868.
For `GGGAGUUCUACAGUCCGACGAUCCUGUGCUACACAUCGUAUGUACCGAAUCGGGGCCCCCCCGGCCCCCCCGGCCCCCCCGGGGAAAGUAUUAUGUUACGCCGUUCGGAUCUGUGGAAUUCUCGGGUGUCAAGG`, the log2 enrichment was -0.53.
For `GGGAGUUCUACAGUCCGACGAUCGCAGGAAGUAAAAACAAAUGGAAAUGCUUCGGAUAGUGGAAAGGGUGGGGGUUGCUAAGGAAAGGGUGGGAUGGGAGUGGGUAAAGAGUUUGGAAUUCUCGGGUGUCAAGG`, the log2 enrichment was 0.86.

Block 3 — technique: RNA Bind-n-Seq; form: RNA; medium: in vitro; concentration: not given; relative to: input RNA pool; direction: higher = stronger binding
Target: RING finger protein unkempt homolog, zinc fingers 1-6, GST-SBP tag (UNK, Homo sapiens, UniProt Q9C0B0, residues 30-357)
Chain of UniProt Q9C0B0 (30-357, looked up): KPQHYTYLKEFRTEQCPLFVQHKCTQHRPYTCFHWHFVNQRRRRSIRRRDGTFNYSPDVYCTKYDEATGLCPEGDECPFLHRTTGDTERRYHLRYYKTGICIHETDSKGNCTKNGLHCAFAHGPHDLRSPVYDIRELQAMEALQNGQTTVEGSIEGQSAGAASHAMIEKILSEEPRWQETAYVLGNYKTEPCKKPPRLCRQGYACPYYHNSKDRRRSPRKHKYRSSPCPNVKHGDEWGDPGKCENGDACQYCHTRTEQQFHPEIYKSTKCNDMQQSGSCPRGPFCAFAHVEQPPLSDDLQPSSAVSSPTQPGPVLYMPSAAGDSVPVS
Setting: RNA with constant flanks, human and mouse sites, ends assumed
With `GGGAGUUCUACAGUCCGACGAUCACAUCUCCAGCAGCAGACAACAUAGAAAAGGAGGCGCUUCCUCGUUAUGAGCCAAUUCCAUUUAGUGCUUCUAUGAACGAGUCCACUCCCACUGGUAUUACUGACCAUAUUGCCCAAGGACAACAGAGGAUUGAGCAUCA` the bound/input enrichment was 0.427 ratio.
With `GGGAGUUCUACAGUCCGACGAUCGAUAUUUGCAAUUAGUUGUCUUAACUAAUGGUUUUUUUCACUUGCAGGAUUAUUUCCUAUUUAGAGAUGGUGACAUUCUUGGAAAGUACGUAGACUGAAAUAAGUCACUAUUGAAAUGGCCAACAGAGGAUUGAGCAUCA` the bound/input enrichment was 0.487 ratio.
The bound/input enrichment of `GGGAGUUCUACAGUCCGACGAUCGCGGUCCCCACGGUCCUGGUAACCCCCCUGGGCGCCCUUGGAGUACCGUUCGGGUCCAUUUUAGCUUCCUAUCUCCUGAAGGAAAAGCUCAACAUCUUGGGCAAGUUGGGGUGCCUGCUACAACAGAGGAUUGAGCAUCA` is reported as 0.281 ratio.
`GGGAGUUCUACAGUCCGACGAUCCCGCCUGAAACUCCAGUGAAAGAAAGGCUGUUUGUUGUGUUUAAUCCCCAUCCUUUGCCACUAGACGUGUUGGAGGAUAUAUUCUGCCGUUUUGGGAACCUGAUCGAGGUCUACCUUGUGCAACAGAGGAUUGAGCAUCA` gave a bound/input enrichment of 0.104 ratio.
The bound/input enrichment of `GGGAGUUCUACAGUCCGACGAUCACCUUAGCUGUGGGACUCAUCAACAUGGCAGAGGUGAUGCAACACCCUAAUGAGGGCGCUUUAGUACUUGGCCUGCACAGCAAUGUGAAGGAUGUCUCUGUGCCAGUGGCAGAAAUAAAACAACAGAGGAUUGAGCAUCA` is reported as 0.178 ratio.
`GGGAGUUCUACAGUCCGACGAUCCAACUUGGGGAGGAUAUUCGGCGAAUUCCUAUUCAUAAUGAAGAUAUUACUUAUGAUGAAUUAGUGCUAAUGAUGCAACGAGUUUUCAGAGGAAAACUUCUGAGUAAUGAUGAAGUAACACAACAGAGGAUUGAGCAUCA` gave a bound/input enrichment of 1.16 ratio.
The bound/input enrichment of `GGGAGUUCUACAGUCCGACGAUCAGCACAUAAAAAGUUCCCCUCUGGCCCCUUCCCAAGUAAAACUUUUACCGUAGUGUUUAUGUCUUGUUUCUAAAUCUCUUCAUAGAUUCCAUCAACACUCCAGAUUUAAUUAUCUCCUCACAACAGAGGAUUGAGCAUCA` is reported as 1.93 ratio.
`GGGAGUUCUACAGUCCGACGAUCAGGCUAGAAAAAGAAAUUUCUAAGUUAAAGCAGCAAAAUGAACAGCUAAUAAAACAAAAGAAUGAAUUGUUAAGCAAUAAUCAGCAUCUUUCCAAUGAGGUCAAAACUUGGAAGGAAAGACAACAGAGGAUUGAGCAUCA` has a bound/input enrichment of 0.412 ratio.
For `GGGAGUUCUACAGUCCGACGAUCAUUAUAAGAGAAACAGAAAAUGAUGACCUUACCAAUGUAAUUCAGAAAAUGAUCUGUGAAUAUAGUGAAGAAGUUACUCCUAUUGCAGUAGAAAUGACACAACAUUUGGCAAUGACAUUUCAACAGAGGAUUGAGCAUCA`, the bound/input enrichment was 0.132 ratio.
For `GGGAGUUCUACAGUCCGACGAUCCAGCCCUGCAUGGGUUUGUUUGUUUUUUUACUGCUCACUCCCAACCUUUUGUAAUGCCAUUUUCUAAACUUAUUUCUGAGUGUAGUCUCAGCUUAAAGUUGUGUAAUACUAAAAUCACGACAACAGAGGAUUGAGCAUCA`, the bound/input enrichment was 0.0963 ratio.
`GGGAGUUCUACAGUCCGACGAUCAUUCCUUUUAUUGAAACAUCAGCAAAGACAAGACAGGGUGUUGAUGAUGCCUUCUAUACAUUAGUUCGAGAAAUUCGAAAACAUAAAGAAAAGAUGAGCAAAGAUGGUAAAAAGAAGAAACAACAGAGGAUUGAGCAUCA` gave a bound/input enrichment of 0.378 ratio.

Block 4 — technique: RNA Bind-n-Seq; form: RNA; medium: in vitro; concentration: 365 nM; relative to: no-protein control; direction: higher = stronger binding
Target: RNA binding protein fox-1 homolog 2, RRM domain, GST-SBP tag (RBFOX2, Homo sapiens, UniProt O43251-10, residues 100-194)
Setting: natural RNA segment, single round, ends assumed
Residues (chain): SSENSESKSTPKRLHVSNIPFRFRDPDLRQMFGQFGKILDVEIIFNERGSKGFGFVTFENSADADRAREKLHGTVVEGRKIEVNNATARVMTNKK
`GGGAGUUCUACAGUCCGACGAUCCACCUGGUCGGUGCACCAGUACCAGGUGGCCAUGAUGGUCAGGCCAAAGGUCAUCCCGGUCCACGGCAGGUCCCCUGUGUGGGGGUCUCGAAACAUGUGCAUGGCGUCUGUGGAAUUCUCGGGUGCCAA`: “RBNS enrichment (R)” 0.52.
For `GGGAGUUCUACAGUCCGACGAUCAUGUAGGUGAGCGCCCGCAUUGCAAAGCUGACUCAGGUCCACUGGGCUGAAGGUCCCUUGGAGCCCAGUGUCUAGUCACACCUUUUUGCUCUGGGCCCAUGAGGCCUACUUGGAAUUCUCGGGUGCCAA`, “RBNS enrichment (R)” read 0.199.
Under “RBNS enrichment (R)”, `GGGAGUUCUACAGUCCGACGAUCGUGUGUGUGUGGAGGGGGAUGCACAUUUACUGUAUAGCCUUUUUGCUGGCUCUCAAACUUGAUGCUCUUGCCUCAGCCUUCCAGUGCUGAAAUUUCAGGCUGCUGCAAACUGGAAUUCUCGGGUGCCAA` is recorded as 1.29.
`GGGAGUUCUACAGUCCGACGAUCCCUGCUCCCCACUCCCUUUCCCCACUCCUUCUUUAUUGCACACAGGACACCAGUCUUCAAGGAAAGGGACUUUUUUCCAGUCUGCCAAUCAUAUUGGGAAAGUGCUAGCUUGGAAUUCUCGGGUGCCAA`: “RBNS enrichment (R)” 0.906.
Under “RBNS enrichment (R)”, `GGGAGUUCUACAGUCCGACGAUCCAUCUUCAUUCAUUCACUGAGUAUUUAUUGAACGCCUCCUAGGUGUCGGACAUGUACUGGGUGCUGGGAAUGCCACUGGAUCAUGAAGUUCACCUCUGGAGGAGACAGGAUGGAAUUCUCGGGUGCCAA` is recorded as 0.289.
`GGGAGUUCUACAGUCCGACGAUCUUAUCUGUGAACUGCAGUGCUGUAUCAAAGCAGUCCAGUAACCUGCAGUACUGAGUAUGGUGCUUGCUCUUUCACUUAACUGAUAAGAGGGACAUGCCUACUAGGAGUUUUGGAAUUCUCGGGUGCCAA`: “RBNS enrichment (R)” 0.284.
Under “RBNS enrichment (R)”, `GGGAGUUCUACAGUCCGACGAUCGUGCCUUUGAGUUUCCUCAGGCUGCUGGAGGAAAACUGAGACUCAGACAGGAAAGGGAAGGCCCCACAGACAAGGUAGCCCUGGCCAGAGGCUUGUUUUGUCUUUUGGUUUGGAAUUCUCGGGUGCCAA` is recorded as 0.898.
Under “RBNS enrichment (R)”, `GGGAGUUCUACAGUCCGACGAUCCUGGGCCCAGCCCAGGGUCUGACUAUCCUAGGCGUCUUCUGAGAAGGCUUUUUCAGGGAAAACAAACAAACCGAUUUUAUAAGUCCAAUCAUCCCCGUGACCUCCUCAGCUGGAAUUCUCGGGUGCCAA` is recorded as 0.236.
For `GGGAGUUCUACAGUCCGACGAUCUUAAACUGUCAGCUGGUCUAGCCUGAGCGAGGCCUGAGACCAUCAGUCACUAAGAGCAGUGGCUAACCUCAUCGAAGUUGGAAGGAAUGUUUUUAAAAUUACCUCUUCGAUGGAAUUCUCGGGUGCCAA`, “RBNS enrichment (R)” read 1.61.

Repeated from above (block 4):
`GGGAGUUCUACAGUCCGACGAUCUUAUCUGUGAACUGCAGUGCUGUAUCAAAGCAGUCCAGUAACCUGCAGUACUGAGUAUGGUGCUUGCUCUUUCACUUAACUGAUAAGAGGGACAUGCCUACUAGGAGUUUUGGAAUUCUCGGGUGCCAA`: “RBNS enrichment (R)” 0.284.
Under “RBNS enrichment (R)”, `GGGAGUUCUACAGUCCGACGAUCGUGCCUUUGAGUUUCCUCAGGCUGCUGGAGGAAAACUGAGACUCAGACAGGAAAGGGAAGGCCCCACAGACAAGGUAGCCCUGGCCAGAGGCUUGUUUUGUCUUUUGGUUUGGAAUUCUCGGGUGCCAA` is recorded as 0.898.
